Results pooled from the literature.
Numbered parts are unrelated; each lists some results of a single study. Positions count from the first letter of the parent shown.

Block 1
Target: Fragile X messenger ribonucleoprotein 1, C-terminal low-complexity region (Fmr1, Mus musculus, UniProt P35922)
Technique: RNA Bind-n-Seq
Form: RNA
Matrix: in vitro
Tested at: 200 nM
Setting: whole 134-nt RNA, ends assumed
Added: 150 mM LiCl
Relative to: input library
Reading: higher = stronger binding
Library: 7-deaza-guanosine replaces G
All sequences stand within: GGGAGUUCUACAGUCCGACGAUC … UGGAAUUCUCGGGUGUCAAGG
Strand	log2 enrichment
ACCAUGCAGGUGGGCAUCUUUGGGAAGUGGGGCAAGGGGGGGAUAGGGAGGGGGGUAACUCUUUGGGAACAGGUGGUCCCAGGUCGUUUC	1.17
AGUCCUGUGCUACACAUCGUAUGUACCGAAUCGGGGAGGGGAAAGGGGUUUUUGGGGAAAGUAUUAUGUUACGCCGUUCGGAUCUGCACU	-0.531
AGUCCUGUGCUACACAUCGUAUGUACCGAAUCGGGCCCCCGGCCCCCGGCCCCCGGGAAAGUAUUAUGUUACGCCGUUCGGAUCUGCACU	-0.725
ACCAUGCAGGUGGGCAUCUUUGAAAAGUGGGGCAAGGGGGGGAUAGGGAGGGGGGUAACACUUUGGGAACAGGUGGUCCCAGGUCGUUUC	1.41
AAUGCCCACAAGGUCCCUCCCCCAUGGCUGAUUGCCAUGCAGCGAUAUGGACCACCCCCAUCGUAUCCCAACCUGAAAAUCCCUGGGCUG	1.05
UGUGCUACACAUCGUAUGUACCGAAUCGGGCCCCCCCGGGGCCCCCCCGGGGCCCCCCCGGGGAAAGUAUUAUGUUACGCCGUUCGGAUC	-1.71
UCCUGUGCUACACAUCGUAUGUACCGAAUCGGGUUUUUUUGGGUUUUUUUGGGAAAGGGAAAGUAUUAUGUUACGCCGUUCGGAUCUGCA	0.0946
UGGGAGGUGGAUUUUGUUUAUUUUUUUAGCUCAUUUCCAGGGGUGGGAAUUUUUUUUUAAUCUGUGUCAUGAAUAAAGUUGUUUUUGAAA	0.0328

Block 2
Target: Sal-like protein 4, full length isoform A (SALL4, Homo sapiens, UniProt Q9UJQ4, residues 1-1053)
UniProt Q9UJQ4, sequence (whole entry, looked up): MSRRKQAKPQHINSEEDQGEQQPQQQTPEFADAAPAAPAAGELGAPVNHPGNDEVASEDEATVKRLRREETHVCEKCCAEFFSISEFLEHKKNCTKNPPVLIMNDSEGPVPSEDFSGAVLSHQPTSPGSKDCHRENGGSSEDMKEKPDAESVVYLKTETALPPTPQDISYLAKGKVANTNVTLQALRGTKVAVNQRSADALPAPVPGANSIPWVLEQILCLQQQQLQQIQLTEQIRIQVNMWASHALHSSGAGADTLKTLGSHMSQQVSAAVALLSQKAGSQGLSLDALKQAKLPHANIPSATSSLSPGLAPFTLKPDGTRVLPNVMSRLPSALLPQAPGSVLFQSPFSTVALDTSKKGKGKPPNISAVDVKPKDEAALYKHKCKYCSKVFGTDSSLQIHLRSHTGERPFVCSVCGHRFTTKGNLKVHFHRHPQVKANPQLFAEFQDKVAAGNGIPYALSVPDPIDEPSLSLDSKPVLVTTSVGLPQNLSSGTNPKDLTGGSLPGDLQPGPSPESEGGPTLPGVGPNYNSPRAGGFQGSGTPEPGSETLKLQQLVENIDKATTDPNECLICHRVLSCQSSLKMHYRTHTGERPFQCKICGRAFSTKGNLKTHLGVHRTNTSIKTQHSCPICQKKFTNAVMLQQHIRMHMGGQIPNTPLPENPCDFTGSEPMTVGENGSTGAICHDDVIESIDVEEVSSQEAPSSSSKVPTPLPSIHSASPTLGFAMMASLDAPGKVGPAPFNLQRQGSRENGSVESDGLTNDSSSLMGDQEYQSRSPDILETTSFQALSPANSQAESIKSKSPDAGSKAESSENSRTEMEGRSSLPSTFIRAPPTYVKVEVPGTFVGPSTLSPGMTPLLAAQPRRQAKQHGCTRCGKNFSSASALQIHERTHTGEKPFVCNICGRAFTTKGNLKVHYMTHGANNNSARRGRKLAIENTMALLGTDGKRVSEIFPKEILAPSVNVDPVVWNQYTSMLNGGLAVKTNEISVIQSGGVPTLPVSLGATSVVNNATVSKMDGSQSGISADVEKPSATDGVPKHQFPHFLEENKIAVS
Technique: universal PBM
Form: double-stranded DNA, one strand shown
Matrix: in vitro
Tested at: 600 nM
Setting: 8-mer, flanks averaged, mean of replicates
Reading: higher = stronger binding
Strand	E-score
GATTAGCA	0.102
GCACTCCA	-0.145
CGTCGTTA	-0.0266
CCCTACAG	-0.203
AAATCCGA	0.127
GACTTTGA	0.131
CATACCCA	0.0022
CGGAAATA	0.236

Single results of other studies
P1: viral docking peptide; KGVKRKLFAEDSS; partner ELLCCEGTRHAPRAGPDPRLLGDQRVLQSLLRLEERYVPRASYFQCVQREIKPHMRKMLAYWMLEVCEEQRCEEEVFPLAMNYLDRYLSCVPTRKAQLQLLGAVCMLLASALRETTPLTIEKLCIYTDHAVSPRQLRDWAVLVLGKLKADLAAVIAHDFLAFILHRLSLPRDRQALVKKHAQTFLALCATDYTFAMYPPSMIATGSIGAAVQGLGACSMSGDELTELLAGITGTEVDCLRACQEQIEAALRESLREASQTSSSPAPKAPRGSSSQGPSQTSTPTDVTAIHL
B1: ARF14 497-605 (Arabidopsis thaliana, UniProt Q9LQE8); chain SPTEIQSKQFSSTRTCTKVQMQGVTIGRAVDLSVLNGYDQLILELEKLFDLKGQLQARNQWEIAFTNNEEDKMLVGEDPWPEFCNMVKKIFIYSKEEVKNLKSRKSLSS
Molecule	target or system	assay	system	conditions	how to read	endpoint	value
P1 F8M	CCND3, cyclin fold, Cln2 fusion (human)	yeast growth competition, sequencing	yeast	weak parent motif	relative to: not given, higher = stronger binding	normalised enrichment score	0.018
NVMDPMHGA	HLA class I histocompatibility antigen, A alpha chain, allele A*25:01 (Homo sapiens, UniProt P04439)	peptide-MHC binding	peptide	concentration not given		binding	inactive
B1 (ARF14 497-605)	ARF22 498-598 (Arabidopsis thaliana, UniProt Q9C8N7)	two-hybrid			relative to: out of 2 tests, higher = firmer interaction	positive tests	0
